Measurements from different studies.
Each line is one published result; not all experiments were run side by side. ± marks the error that the study gave.

For `CCCC[C@H](NC(=O)CNC(=O)CNC(=O)CNC(=O)c1ccc(NN)nc1)C(=O)N[C@H]1CC(=O)NCCCC[C@@H](C(N)=O)NC(=O)[C@H](Cc2c[nH]c3ccccc23)NC(=O)[C@H](CCCNC(=N)N)NC(=O)[C@@H](Cc2ccccc2)NC(=O)[C@H](Cc2c[nH]cn2)NC1=O` [technetium-99m labelled], the tissue uptake was 0.52 ± 0.09 %ID (C57 mouse, B16/F1 melanoma, intestines; intravenous, 0.037 MBq, 2 h).
`N=C(N)NCCC[C@@H]1NC(=O)[C@H](CCCCNC(=O)CC[C@H](NC(=O)[C@H](CCCCNC(=O)c2ccc(NN)nc2)NC(=O)c2ccc(NN)nc2)C(=O)NCCCC[C@@H]2NC(=O)[C@@H](Cc3ccccc3)NC(=O)[C@H](CC(=O)O)NC(=O)CNC(=O)[C@H](CCCNC(=N)N)NC2=O)NC(=O)[C@@H](Cc2ccccc2)NC(=O)[C@H](CC(=O)O)NC(=O)CNC1=O` [technetium-99m labelled] has a tissue uptake of 3.78 ± 0.81 %ID/g (athymic nude mouse, female, U-87 MG xenograft, tumor; intravenous, 0.1 MBq, 1 h).
The tissue uptake of `CCCC[C@H](NC(=O)CNC(=O)CNC(=O)c1ccc(NN)nc1)C(=O)N[C@H]1CC(=O)NCCCC[C@@H](C(N)=O)NC(=O)[C@H](Cc2c[nH]c3ccccc23)NC(=O)[C@H](CCCNC(=N)N)NC(=O)[C@@H](Cc2ccccc2)NC(=O)[C@H](Cc2c[nH]cn2)NC1=O` [technetium-99m labelled] is reported as 2.73 ± 0.76 %ID/g (C57 mouse, B16/F1 melanoma-bearing, lung; intravenous, 0.5 h).
The tissue uptake of `CSCC[C@H](NC(=O)[C@H](CC(C)C)NC(=O)[C@H](Cc1c[nH]cn1)NC(=O)CNC(=O)[C@@H](NC(=O)[C@H](C)NC(=O)[C@H](Cc1c[nH]c2ccccc12)NC(=O)[C@H](CCC(N)=O)NC(=O)[C@H](CC(N)=O)NC(=O)CNC(=O)[C@H](Cc1ccc(O)cc1)NC(=O)[C@H](CCCNC(=N)N)NC(=O)[C@H](CCC(N)=O)NC(=O)[C@@H]1CCCN1C(=O)CN1CCN(CC(=O)O)CCN(CC(=O)O)CCN(CC(=O)O)CC1)C(C)C)C(N)=O` [indium-111 labelled] is reported as 2.1 ± 0.9 %ID/g (Swiss nu/nu mouse, male, PC-3 tumour xenograft, tumour; intravenous, 10 pmol, 1 h).
`CCCC[C@H](NC(=O)CCCCCCCNC(=O)c1ccc(NN)nc1)C(=O)N[C@H]1CC(=O)NCCCC[C@@H](C(N)=O)NC(=O)[C@H](Cc2c[nH]c3ccccc23)NC(=O)[C@H](CCCNC(=N)N)NC(=O)[C@@H](Cc2ccccc2)NC(=O)[C@H](Cc2c[nH]cn2)NC1=O` [technetium-99m labelled] has a tissue uptake of 0.82 ± 0.15 %ID/g (C57 mouse, B16/F1 melanoma, blood; 2 h, with: NDP-MSH 10 µg (6.07 nmol) co-injected).
The tissue uptake of `CCCC[C@H](NC(=O)[C@H](Cc1cccs1)NC(=O)[C@H](Cc1c[nH]cn1)NC(=O)CCNC(=O)[C@@H](NC(=O)[C@H](C)NC(=O)[C@H](Cc1c[nH]c2ccccc12)NC(=O)[C@H](CCC(N)=O)NC(=O)[C@H](Cc1cccs1)NC(=O)CN1CCC(NC(=O)CN(CCN(CCN(CC(=O)O)CC(=O)O)CC(=O)O)CC(=O)O)CC1)C(C)C)C(N)=O` [indium-111 labelled] is reported as 0.9 ± 0.2 %ID/g (Swiss nu/nu mouse, male, PC-3 tumour xenograft, tumour; intravenous, 10 pmol, 1 h).
With `N=C(N)NCCC[C@@H]1NC(=O)[C@H](CCCCNC(=O)CNC(=O)CNC(=O)CNC(=O)CC[C@H](NC(=O)CNC(=O)CNC(=O)CNC(=O)c2ccc(NN=Cc3ccccc3S(=O)(=O)O)nc2)C(=O)NCC(=O)NCC(=O)NCC(=O)NCCCC[C@@H]2NC(=O)[C@@H](Cc3ccccc3)NC(=O)[C@H](CC(=O)O)NC(=O)CNC(=O)[C@H](CCCNC(=N)N)NC2=O)NC(=O)[C@@H](Cc2ccccc2)NC(=O)[C@H](CC(=O)O)NC(=O)CNC1=O` [technetium-99m labelled] the tissue uptake was 2.47 ± 0.25 %ID/g (athymic nu/nu mouse, female, MDA-MB-435 xenograft, liver; intravenous, 120 min).
For `N=C(N)NCCC[C@H](NC(=O)[C@H](CCCCN)NC(=O)[C@H](CCC(N)=O)NC(=O)CCOCCOCCOCCNC(=O)CN1CCN(CC(=O)O)CCN(CC(=O)O)CCN(CC(=O)O)CC1)C(=O)N[C@@H](CCCCN)C(=O)N[C@@H](CCCNC(=N)N)C(=O)N[C@@H](CCCCN)C(=O)N[C@@H](CCCCN)C(=O)N[C@@H](CO)C(=O)N[C@@H](CCCNC(=N)N)C(=O)N[C@@H](Cc1ccc(O)cc1)C(=O)N[C@@H](CCCCN)C(=O)N[C@@H](CO)C(=O)O` [copper-64 labelled], the tissue uptake was 4.45 ± 0.61 %ID/g (C57BL/6 Jms mouse, male, B16-F10 melanoma, tumour; intravenous, 60 min).
For `N=C(N)NCCC[C@@H]1NC(=O)[C@H](CCCCNC(=O)CNC(=O)CNC(=O)CNC(=O)CC[C@H](NC(=O)CNC(=O)CNC(=O)CNC(=O)[C@H](CCCCNC(=O)c2ccc(NN)nc2)NC(=O)c2ccc(NN)nc2)C(=O)NCC(=O)NCC(=O)NCC(=O)NCCCC[C@@H]2NC(=O)[C@@H](Cc3ccccc3)NC(=O)[C@H](CC(=O)O)NC(=O)CNC(=O)[C@H](CCCNC(=N)N)NC2=O)NC(=O)[C@@H](Cc2ccccc2)NC(=O)[C@H](CC(=O)O)NC(=O)CNC1=O` [technetium-99m labelled], the tissue uptake was 7.46 ± 1.68 %ID/g (athymic nude mouse, female, U-87 MG xenograft, tumor; intravenous, 0.1 MBq, 1 h).
`CCCC[C@H](NC(=O)COCCOCCNC(=O)c1ccc(NN)nc1)C(=O)N[C@H]1CC(=O)NCCCC[C@@H](C(N)=O)NC(=O)[C@H](Cc2c[nH]c3ccccc23)NC(=O)[C@H](CCCNC(=N)N)NC(=O)[C@@H](Cc2ccccc2)NC(=O)[C@H](Cc2c[nH]cn2)NC1=O` [technetium-99m labelled] gave a tissue uptake of 0.49 ± 0.07 %ID/g (C57 mouse, female, B16/F1 melanoma, skin; intravenous, 0.037 MBq, 2 h).
`CSCC[C@H](NC(=O)[C@H](CC(C)C)NC(=O)[C@H](Cc1c[nH]cn1)NC(=O)CNC(=O)[C@@H](NC(=O)[C@H](C)NC(=O)[C@H](Cc1c[nH]c2ccccc12)NC(=O)[C@H](CCC(N)=O)NC(=O)CCCCCNC(=O)CNC(=O)CNC(=O)CNC(=O)CSC(C)=O)C(C)C)C(N)=O` [technetium-99m labelled] has a tissue uptake of 0.73 ± 0.07 %ID/g (Swiss mouse, spleen; intravenous, 18.5 MBq, 240 min).
With `N=C(N)NCCC[C@@H]1NC(=O)[C@H](CCCCNC(=O)CNC(=O)CNC(=O)CNC(=O)c2ccc(NN=Cc3ccccc3S(=O)(=O)O)nc2)NC(=O)[C@@H](Cc2ccccc2)NC(=O)[C@H](CC(=O)O)NC(=O)CNC1=O` [technetium-99m labelled] the tissue uptake was 10.9 ± 2.02 %ID/g (athymic nu/nu mouse, female, U-87 MG glioma xenograft, kidney; intravenous, 30 min).
The tissue uptake of `N=C(N)NCCC[C@@H]1NC(=O)[C@H](CCCCNC(=O)CCOCCOCCOCCOCCNC(=O)CC[C@H](NC(=O)CCOCCOCCOCCOCCNC(=O)CC[C@H](NC(=O)CN2CCN(CC(=O)O)CCN(CC(=O)O)CCN(CC(=O)O)CC2)C(=O)NCCOCCOCCOCCOCCC(=O)N[C@@H](CCC(=O)NCCOCCOCCOCCOCCC(=O)NCCCC[C@@H]2NC(=O)[C@@H](Cc3ccccc3)NC(=O)[C@H](CC(=O)O)NC(=O)CNC(=O)[C@H](CCCNC(=N)N)NC2=O)C(=O)NCCOCCOCCOCCOCCC(=O)NCCCC[C@@H]2NC(=O)[C@@H](Cc3ccccc3)NC(=O)[C@H](CC(=O)O)NC(=O)CNC(=O)[C@H](CCCNC(=N)N)NC2=O)C(=O)NCCOCCOCCOCCOCCC(=O)NCCCC[C@@H]2NC(=O)[C@@H](Cc3ccccc3)NC(=O)[C@H](CC(=O)O)NC(=O)CNC(=O)[C@H](CCCNC(=N)N)NC2=O)NC(=O)[C@@H](Cc2ccccc2)NC(=O)[C@H](CC(=O)O)NC(=O)CNC1=O` [indium-111 labelled] is reported as 1.2 %ID/g (athymic nude mouse U-87 MG xenograft, lungs; intravenous, 1 h, with: RGD2 co-injected 14 mg/kg).
With `N=C(N)NCCC[C@@H]1NC(=O)[C@H](CCCCNC(=O)CNC(=O)CNC(=O)CNC(=O)CC[C@H](NC(=O)c2ccc(NN=Cc3ccccc3S(=O)(=O)O)nc2)C(=O)NCC(=O)NCC(=O)NCC(=O)NCCCC[C@@H]2NC(=O)[C@@H](Cc3ccccc3)NC(=O)[C@H](CC(=O)O)NC(=O)CNC(=O)[C@H](CCCNC(=N)N)NC2=O)NC(=O)[C@@H](Cc2ccccc2)NC(=O)[C@H](CC(=O)O)NC(=O)CNC1=O` [technetium-99m labelled] the tissue uptake was 20.9 ± 3.49 %ID/g (athymic nu/nu mouse, female, MDA-MB-435 xenograft, kidney; intravenous, 30 min).
`N=C(N)NCCC[C@@H]1NC(=O)[C@H](CC(=O)NC23CNCCNCC(N)(CNCCNC2)CNCCNC3)NC(=O)[C@@H](Cc2ccccc2)NC(=O)[C@H](CC(=O)O)NC(=O)CNC1=O` [copper-64 labelled] has a tissue uptake of 2.63 ± 0.53 %ID/g (Nu/Nu mouse, male, tumour-bearing, liver; intravenous, 10 µCi, 2 h).
